{"data": "Assay results from different studies", "note": "Each numbered part is a random draw from the data of one study; scales do not carry over between parts.", "UniProt Q8IYT8, sequence (whole entry, looked up)": "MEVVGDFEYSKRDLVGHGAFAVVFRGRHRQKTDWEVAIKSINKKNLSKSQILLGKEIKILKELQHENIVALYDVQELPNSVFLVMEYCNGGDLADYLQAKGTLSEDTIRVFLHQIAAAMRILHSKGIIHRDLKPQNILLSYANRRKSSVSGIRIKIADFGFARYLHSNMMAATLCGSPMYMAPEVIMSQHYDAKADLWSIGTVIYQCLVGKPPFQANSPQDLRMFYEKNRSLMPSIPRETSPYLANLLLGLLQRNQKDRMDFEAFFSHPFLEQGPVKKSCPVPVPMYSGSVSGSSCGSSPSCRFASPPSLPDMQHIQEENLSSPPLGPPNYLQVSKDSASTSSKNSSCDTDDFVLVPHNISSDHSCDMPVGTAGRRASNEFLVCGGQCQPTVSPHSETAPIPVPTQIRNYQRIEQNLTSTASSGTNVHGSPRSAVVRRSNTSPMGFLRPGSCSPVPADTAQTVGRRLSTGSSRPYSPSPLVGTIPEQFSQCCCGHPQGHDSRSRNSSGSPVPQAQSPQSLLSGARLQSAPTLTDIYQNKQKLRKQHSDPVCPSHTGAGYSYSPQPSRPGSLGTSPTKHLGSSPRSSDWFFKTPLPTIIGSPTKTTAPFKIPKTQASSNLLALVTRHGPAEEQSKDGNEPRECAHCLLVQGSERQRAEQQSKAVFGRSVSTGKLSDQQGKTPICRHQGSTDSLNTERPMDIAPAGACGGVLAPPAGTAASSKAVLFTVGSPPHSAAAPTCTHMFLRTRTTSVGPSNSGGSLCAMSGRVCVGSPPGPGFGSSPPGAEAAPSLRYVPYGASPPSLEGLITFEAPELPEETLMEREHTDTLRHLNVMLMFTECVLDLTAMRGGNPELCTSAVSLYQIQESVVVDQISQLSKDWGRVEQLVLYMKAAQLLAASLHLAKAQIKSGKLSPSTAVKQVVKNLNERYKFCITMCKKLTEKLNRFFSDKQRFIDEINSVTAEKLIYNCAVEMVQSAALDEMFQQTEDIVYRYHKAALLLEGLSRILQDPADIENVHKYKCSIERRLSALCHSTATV", "UniProt O75582, sequence (whole entry, looked up)": "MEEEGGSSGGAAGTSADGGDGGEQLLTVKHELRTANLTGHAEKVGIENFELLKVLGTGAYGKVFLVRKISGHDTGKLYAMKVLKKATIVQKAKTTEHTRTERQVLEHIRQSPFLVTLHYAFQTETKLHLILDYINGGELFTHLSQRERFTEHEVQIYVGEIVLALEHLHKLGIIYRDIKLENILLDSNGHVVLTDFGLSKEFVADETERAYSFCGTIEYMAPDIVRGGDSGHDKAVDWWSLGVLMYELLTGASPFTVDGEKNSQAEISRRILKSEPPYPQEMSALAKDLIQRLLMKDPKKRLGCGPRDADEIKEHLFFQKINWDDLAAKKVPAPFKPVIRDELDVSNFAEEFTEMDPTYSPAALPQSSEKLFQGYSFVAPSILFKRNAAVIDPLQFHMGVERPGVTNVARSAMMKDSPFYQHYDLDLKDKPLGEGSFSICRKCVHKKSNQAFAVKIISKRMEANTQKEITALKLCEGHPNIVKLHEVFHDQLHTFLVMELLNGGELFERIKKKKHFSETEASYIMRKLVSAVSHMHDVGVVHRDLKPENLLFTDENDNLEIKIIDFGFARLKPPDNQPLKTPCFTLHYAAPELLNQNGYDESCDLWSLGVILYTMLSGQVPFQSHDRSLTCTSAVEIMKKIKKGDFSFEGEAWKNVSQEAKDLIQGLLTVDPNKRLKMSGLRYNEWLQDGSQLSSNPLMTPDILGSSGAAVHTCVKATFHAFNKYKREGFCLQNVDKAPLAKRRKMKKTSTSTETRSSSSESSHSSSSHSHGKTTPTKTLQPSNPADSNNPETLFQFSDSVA", "UniProt O00506, sequence (whole entry, looked up)": "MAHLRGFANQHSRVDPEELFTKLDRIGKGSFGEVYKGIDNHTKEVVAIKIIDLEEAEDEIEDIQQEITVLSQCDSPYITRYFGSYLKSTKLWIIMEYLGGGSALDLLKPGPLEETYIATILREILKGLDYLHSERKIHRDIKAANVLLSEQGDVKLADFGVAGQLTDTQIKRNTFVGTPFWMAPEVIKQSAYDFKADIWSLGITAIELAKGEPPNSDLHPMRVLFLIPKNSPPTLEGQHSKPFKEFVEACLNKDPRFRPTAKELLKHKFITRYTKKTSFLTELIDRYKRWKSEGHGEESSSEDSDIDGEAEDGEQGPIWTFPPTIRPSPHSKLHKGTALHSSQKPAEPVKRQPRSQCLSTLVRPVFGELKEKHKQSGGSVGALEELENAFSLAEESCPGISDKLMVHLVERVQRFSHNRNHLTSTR", "UniProt Q00526, sequence (whole entry, looked up)": "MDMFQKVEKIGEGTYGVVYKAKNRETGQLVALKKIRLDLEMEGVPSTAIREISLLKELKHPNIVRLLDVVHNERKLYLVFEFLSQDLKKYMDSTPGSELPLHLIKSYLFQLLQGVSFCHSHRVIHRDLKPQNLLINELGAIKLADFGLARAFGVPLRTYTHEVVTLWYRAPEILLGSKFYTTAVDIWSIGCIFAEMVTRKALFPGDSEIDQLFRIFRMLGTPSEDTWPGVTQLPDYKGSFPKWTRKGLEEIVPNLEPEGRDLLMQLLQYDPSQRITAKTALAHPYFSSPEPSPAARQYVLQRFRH", "UniProt P08581, sequence (whole entry, looked up)": "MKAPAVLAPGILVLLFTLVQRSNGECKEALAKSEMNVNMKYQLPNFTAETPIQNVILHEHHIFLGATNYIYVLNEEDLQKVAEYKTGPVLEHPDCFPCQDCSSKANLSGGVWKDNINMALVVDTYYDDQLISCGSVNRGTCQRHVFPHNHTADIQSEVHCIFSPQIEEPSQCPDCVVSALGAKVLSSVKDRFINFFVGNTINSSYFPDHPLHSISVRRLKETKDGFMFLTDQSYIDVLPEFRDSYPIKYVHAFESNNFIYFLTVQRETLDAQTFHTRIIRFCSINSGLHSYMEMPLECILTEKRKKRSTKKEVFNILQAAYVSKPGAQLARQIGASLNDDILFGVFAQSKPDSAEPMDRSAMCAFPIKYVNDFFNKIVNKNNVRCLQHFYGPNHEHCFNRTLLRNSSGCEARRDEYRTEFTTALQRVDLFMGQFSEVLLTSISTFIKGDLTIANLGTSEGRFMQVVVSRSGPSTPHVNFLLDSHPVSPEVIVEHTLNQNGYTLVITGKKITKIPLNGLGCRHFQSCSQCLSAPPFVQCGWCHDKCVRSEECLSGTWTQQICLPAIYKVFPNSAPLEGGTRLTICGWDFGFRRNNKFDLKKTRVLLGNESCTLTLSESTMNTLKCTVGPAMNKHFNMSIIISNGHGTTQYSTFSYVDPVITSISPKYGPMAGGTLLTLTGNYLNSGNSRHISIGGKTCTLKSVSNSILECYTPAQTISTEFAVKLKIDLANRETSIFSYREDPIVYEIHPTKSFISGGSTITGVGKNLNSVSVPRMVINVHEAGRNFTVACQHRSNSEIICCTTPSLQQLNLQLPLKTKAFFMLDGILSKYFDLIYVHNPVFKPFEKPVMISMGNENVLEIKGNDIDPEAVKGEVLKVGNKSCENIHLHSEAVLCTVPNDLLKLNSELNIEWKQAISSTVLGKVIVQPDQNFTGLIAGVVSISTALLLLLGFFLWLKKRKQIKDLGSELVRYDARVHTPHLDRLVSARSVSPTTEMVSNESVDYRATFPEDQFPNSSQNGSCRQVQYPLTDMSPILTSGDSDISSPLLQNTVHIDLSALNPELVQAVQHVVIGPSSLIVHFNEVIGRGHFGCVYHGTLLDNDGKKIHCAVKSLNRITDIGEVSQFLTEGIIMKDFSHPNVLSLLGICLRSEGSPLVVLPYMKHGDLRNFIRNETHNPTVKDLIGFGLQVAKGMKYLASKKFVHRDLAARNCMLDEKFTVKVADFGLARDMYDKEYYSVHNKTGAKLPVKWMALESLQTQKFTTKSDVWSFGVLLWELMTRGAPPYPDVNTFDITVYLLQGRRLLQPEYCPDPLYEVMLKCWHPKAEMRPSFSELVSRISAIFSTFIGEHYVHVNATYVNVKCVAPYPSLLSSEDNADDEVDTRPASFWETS"}
{"data": "Study 1", "target": "Calcium/calmodulin-dependent protein kinase type II subunit alpha (CAMK2A, Homo sapiens, UniProt Q9UQM7)", "read-out": "enzyme activity", "action": "inhibitor", "tested at": "10 µM", "UniProt Q9UQM7, sequence (whole entry, looked up)": "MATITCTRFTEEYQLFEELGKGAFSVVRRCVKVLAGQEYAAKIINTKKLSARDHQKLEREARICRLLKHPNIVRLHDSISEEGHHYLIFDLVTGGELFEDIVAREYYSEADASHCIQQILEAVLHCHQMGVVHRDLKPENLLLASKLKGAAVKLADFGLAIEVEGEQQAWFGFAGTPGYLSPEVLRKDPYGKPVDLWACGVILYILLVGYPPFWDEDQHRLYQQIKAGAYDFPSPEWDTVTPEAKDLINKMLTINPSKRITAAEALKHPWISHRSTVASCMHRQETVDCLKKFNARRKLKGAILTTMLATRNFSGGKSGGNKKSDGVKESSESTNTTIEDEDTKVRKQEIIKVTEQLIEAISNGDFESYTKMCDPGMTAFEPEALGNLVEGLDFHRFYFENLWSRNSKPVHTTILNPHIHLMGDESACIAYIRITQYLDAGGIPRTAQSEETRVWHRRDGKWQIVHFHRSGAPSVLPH"}
{"SMILES": "Clc1ccccc1CN1CCc2sccc2C1", "inhibition": "-6%"}
{"SMILES": "O=c1ccn([C@@H]2O[C@H](COP(=O)(O)OP(=O)(O)O)[C@@H](O)[C@H]2O)c(=O)[nH]1", "inhibition": "3%"}
{"SMILES": "CCC(=O)O[C@]1(C(=O)SCF)[C@H](C)C[C@H]2[C@@H]3C[C@H](F)C4=CC(=O)C=C[C@]4(C)[C@@]3(F)[C@@H](O)C[C@@]21C", "inhibition": "-6%"}
{"SMILES": "OC[C@@H](O)[C@H](O)[C@H](O)[C@@H](O)CO", "inhibition": "1%"}
{"SMILES": "CC(O)(P(=O)(O)O)P(=O)(O)O", "inhibition": "-2%"}
{"SMILES": "O=S(=O)(O)CCS", "inhibition": "-11%"}
{"SMILES": "C=C[C@]1(C)C[C@@H](OC(=O)CS[C@@H]2CC[C@@H](N)C[C@H]2O)[C@]2(C)[C@H](C)CC[C@]3(CCC(=O)[C@H]32)[C@@H](C)[C@@H]1O", "inhibition": "2%"}
{"data": "Study 2", "Structure (SMILES)": "O=C(Nc1cnn(-c2csc(C(=O)NC3COC3)c2)c1)Nc1ccccc1Cl", "tested at": "5 µM"}
{"target": "ULK2 (Homo sapiens, UniProt Q8IYT8)", "test": "enzyme activity", "how to read": "reference: untreated control", "remaining activity [%]": 195}
{"target": "SRC (Homo sapiens, UniProt P12931)", "test": "enzyme activity", "how to read": "reference: untreated control", "remaining activity [%]": 85.5}
{"target": "EPHB3 (Homo sapiens, UniProt P54753)", "test": "enzyme activity", "how to read": "reference: untreated control", "remaining activity [%]": 84.8}
{"target": "Protein kinase C beta type, isoform beta-I (PRKCB, Homo sapiens, UniProt P05771)", "test": "kinase activity, kinase panel profiling", "remaining activity [%]": 102}
{"target": "STK25 (Homo sapiens, UniProt O00506)", "test": "enzyme activity", "how to read": "reference: untreated control", "remaining activity [%]": 106}
{"data": "Study 3", "target": "Activin receptor type-1B (ACVR1B, Homo sapiens, UniProt P36896)", "read-out": "enzyme activity", "action": "inhibitor", "tested at": "0.5 µM", "reference": "control", "UniProt P36896, sequence (whole entry, looked up)": "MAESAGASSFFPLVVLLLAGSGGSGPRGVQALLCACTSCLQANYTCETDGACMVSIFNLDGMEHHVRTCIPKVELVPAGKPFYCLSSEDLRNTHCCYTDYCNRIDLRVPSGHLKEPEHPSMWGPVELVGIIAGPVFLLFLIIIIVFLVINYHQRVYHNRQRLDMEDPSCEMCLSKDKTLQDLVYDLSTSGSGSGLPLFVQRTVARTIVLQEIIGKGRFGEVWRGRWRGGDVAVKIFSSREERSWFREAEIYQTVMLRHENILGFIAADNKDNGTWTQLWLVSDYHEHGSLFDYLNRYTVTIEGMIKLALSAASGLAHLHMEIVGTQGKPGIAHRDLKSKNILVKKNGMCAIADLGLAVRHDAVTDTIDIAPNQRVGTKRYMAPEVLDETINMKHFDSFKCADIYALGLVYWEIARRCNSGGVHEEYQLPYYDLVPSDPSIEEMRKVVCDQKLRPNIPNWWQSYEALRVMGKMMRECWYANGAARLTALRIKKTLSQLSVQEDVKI"}
{"SMILES": "O=S(=O)(c1cccc2cnccc12)N1CCCNCC1", "remaining activity": "100%"}
{"SMILES": "O=C1NC(=O)C(c2cn(CCCO)c3ncccc23)=C1c1cnccn1", "remaining activity": "100%"}
{"SMILES": "O=C(O)c1ccc2c3c1cccc3c(=O)n1c3ccccc3nc21", "remaining activity": "93.5%"}
{"SMILES": "O=C(CCCc1ccc(-c2ccccc2F)cc1)Nc1ccc(O)cc1", "remaining activity": "95.9%"}
{"SMILES": "COc1ccc(CNC(=O)Nc2ncc([N+](=O)[O-])s2)cc1", "remaining activity": "102%"}
{"SMILES": "NCCNc1ncc(C(N)=O)c(Nc2cccc(C(F)(F)F)c2)n1", "remaining activity": "98.2%"}
{"SMILES": "COc1cc2ncnc(Nc3ccc(F)c(Cl)c3)c2cc1OCCCN1CCOCC1", "remaining activity": "99.6%"}
{"SMILES": "Cc1nc(-c2ccccc2)c(-c2ccncc2)o1", "remaining activity": "99.3%"}
{"SMILES": "CN(C)c1ccc(C=C2C(=O)Nc3ccccc32)cc1", "remaining activity": "93.4%"}
{"SMILES": "COc1cc2nccc(Oc3ccc(NC(=S)NC(=O)c4ccccc4C)cc3)c2cc1OC", "remaining activity": "92.1%"}
{"SMILES": "O=C1NC(=O)C(c2cn(CCCn3ccnc3)c3ccccc23)=C1Nc1ccccc1", "remaining activity": "96.2%"}
{"SMILES": "COc1ccc(OC)c2c(=S)c3ccccc3[nH]c12", "remaining activity": "108%"}
{"SMILES": "Cc1ccc(Nc2nccc(N(C)c3ccc4c(C)n(C)nc4c3)n2)cc1S(N)(=O)=O", "remaining activity": "100%"}
{"SMILES": "O=C(Nc1cccc(Nc2cc(Nc3cccc(C(F)(F)F)c3)ncn2)c1)C1CC1", "remaining activity": "101%"}
{"SMILES": "CCOC(=O)c1c(C)[nH]c(/C=C2\\C(=O)Nc3ccccc32)c1C", "remaining activity": "96.6%"}
{"SMILES": "Cn1sc(=O)n(Cc2ccccc2)c1=O", "remaining activity": "103%"}
{"data": "Study 4", "SMILES": "O=C(N1CCS(=O)(=O)CC1)N1C[C@H](c2ccc(OC(F)(F)F)cc2)C[C@H](c2nc(C3CC3)no2)C1", "read-out": "cell-free assay", "technique": "competition with immobilised ligand", "tested at": "1 µM"}
{"target": "LRRK2 (Homo sapiens, UniProt Q5S007, G2019S)", "remaining binding [%]": 100}
{"target": "DAPK1 (Homo sapiens, UniProt P53355)", "remaining binding [%]": 92}
{"target": "CDK3 (Homo sapiens, UniProt Q00526)", "remaining binding [%]": 96}
{"target": "Non-receptor tyrosine-protein kinase TYK2, JH2 (TYK2, Homo sapiens, UniProt P29597)", "remaining binding [%]": 94}
{"target": "MET (Homo sapiens, UniProt P08581)", "remaining binding [%]": 100}
{"target": "EPHA5 (Homo sapiens, UniProt P54756)", "remaining binding [%]": 96}
{"target": "Ribosomal protein S6 kinase alpha-5, C-terminal kinase domain (RPS6KA5, Homo sapiens, UniProt O75582)", "remaining binding [%]": 100}
{"note": "Some of these lines once more (study 4):"}
{"target": "CDK3 (Homo sapiens, UniProt Q00526)", "remaining binding [%]": 96}
{"target": "Non-receptor tyrosine-protein kinase TYK2, JH2 (TYK2, Homo sapiens, UniProt P29597)", "remaining binding [%]": 94}
{"target": "MET (Homo sapiens, UniProt P08581)", "remaining binding [%]": 100}
{"target": "EPHA5 (Homo sapiens, UniProt P54756)", "remaining binding [%]": 96}
{"target": "Ribosomal protein S6 kinase alpha-5, C-terminal kinase domain (RPS6KA5, Homo sapiens, UniProt O75582)", "remaining binding [%]": 100}
